{"data": "Experimental data pooled from the literature", "note": "Every numbered part comes from another study and shows a few of its results, in no order. Positions count from the first letter of the parent shown."}
{"data": "Block 1", "target": "OGT, full length, His-tagged (human)", "method": "phage display, sequencing", "sample": "in vitro", "concentration": "1 µg OGT", "setting": "single substitutions, 15-mer displayed peptide, unchanged parent 16.7", "reference": "input library", "reading": "higher = stronger binding", "starting sequence": "peptide; NSEYMPQYQIIFAHQ"}
{"Variant": "A13K", "fold enrichment": "25.6 fold"}
{"Variant": "Y4E", "fold enrichment": "0.541 fold"}
{"Variant": "I10P", "fold enrichment": "0.553 fold"}
{"Variant": "P6Y", "fold enrichment": "2.09 fold"}
{"Variant": "I11E", "fold enrichment": "28.3 fold"}
{"Variant": "F12M", "fold enrichment": "5.75 fold"}
{"Variant": "Y8E", "fold enrichment": "0.705 fold"}
{"Variant": "A13W", "fold enrichment": "7.28 fold"}
{"Variant": "I10F", "fold enrichment": "0.915 fold"}
{"Variant": "Y4N", "fold enrichment": "0.695 fold"}
{"Variant": "Y8N", "fold enrichment": "0.387 fold"}
{"Variant": "A13E", "fold enrichment": "18.5 fold"}
{"Variant": "I10T", "fold enrichment": "0.467 fold"}
{"Variant": "F12I", "fold enrichment": "10.7 fold"}
{"Variant": "E3P", "fold enrichment": "24.3 fold"}
{"Variant": "F12D", "fold enrichment": "0.55 fold"}
{"Variant": "P6R", "fold enrichment": "1.77 fold"}
{"Variant": "Q9M", "fold enrichment": "14 fold"}
{"Variant": "Y8T", "fold enrichment": "0.371 fold"}
{"Variant": "Q9G", "fold enrichment": "1.04 fold"}
{"Variant": "Q9E", "fold enrichment": "6.21 fold"}
{"Variant": "P6F", "fold enrichment": "3.41 fold"}
{"data": "Block 2", "target": "RING finger protein unkempt homolog, zinc fingers 1-6, SBP tag (UNK, Homo sapiens, UniProt Q9C0B0, residues 30-357)", "method": "RNA Bind-n-Seq", "form": "RNA", "sample": "in vitro", "concentration": "100 nM", "setting": "RNA with constant flanks, vertebrate orthologous sites, ends assumed", "reference": "input RNA pool", "reading": "higher = stronger binding", "shared flanks, not repeated": "GGGAGUUCUACAGUCCGACGAUC … CAACAGAGGAUUGAGCAUCA", "chain of UniProt Q9C0B0 (30-357, looked up)": "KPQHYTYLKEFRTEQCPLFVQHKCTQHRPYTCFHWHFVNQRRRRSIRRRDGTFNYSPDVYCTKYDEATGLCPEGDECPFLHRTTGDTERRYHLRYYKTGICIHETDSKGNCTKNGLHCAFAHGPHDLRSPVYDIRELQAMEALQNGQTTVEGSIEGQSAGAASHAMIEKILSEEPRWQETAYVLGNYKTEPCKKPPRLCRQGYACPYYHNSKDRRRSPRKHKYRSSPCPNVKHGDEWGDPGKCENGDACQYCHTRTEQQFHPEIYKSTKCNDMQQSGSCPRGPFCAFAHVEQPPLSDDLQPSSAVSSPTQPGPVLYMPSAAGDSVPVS"}
{"Sequence": "AGUAGUUUUAAGCUUGUUUGCACAGUUCUUUUUUUCCAUUGGAAAUGGAAUUCAUUGCCUUAGGUCUUUUUAAAUAGUGUAUUAUUAUCGUUGGGGCUGGCUCUAUGCUUGAAAACCAGU", "bound/input enrichment [ratio]": 3.4}
{"Sequence": "CCGAAAGGCCAAAUUCCCUCCUCCCUUCUACUGCUUCUACCAACUGGAAGCACAGAAAACUAGAAUUUCAUUUAUUUUGUUUUUAAAAAAAUAUGUUGAUUUCUUGUAACAUCCAAUAGG", "bound/input enrichment [ratio]": 0.45}
{"Sequence": "CCCCAAGGGCUGGUAGAGUCGAGUCCCGUUCUUAGAGCGUUCCCUCUCCAUUUUGUGUCCCUCGGGGUGGCGUAGGGGGUGCGCGCACCCCGGCCCCGAGGCGCCAGUGCUUGUGGUCCA", "bound/input enrichment [ratio]": 0.503}
{"Sequence": "GUUGGUGCAGAGUGCUCUCUGUACCAGUGCUCAUCACCCCUUCUUCAUACCAACUGUCCCUAGUUCUAGGAAUUUAAUAUUUUUAAAAGUUUUACAUUGCUGUAUAUUCAAAGAUUUGUU", "bound/input enrichment [ratio]": 1.11}
{"Sequence": "GGGUGGCCGGUGGGGGAACCCCAUGCCCUGGCCUUGCCUCCCCUCCCUGCCACCCGCUCCUAGUUAUUAUUUUUUUUUUUAACCACCAUGUGAUUAAGGUCGGCGCUGCCUCCCCCGACC", "bound/input enrichment [ratio]": 6.15}
{"Sequence": "UUGGGAUCAGCUCCCCAAAUAGGAAUAGUAGUAAAAAAAAUAAGCAAAAUGAUAUUUGUAUAGAAAAAACAGAAGUUAAAUCAUGUAAAGUAAAUGUUGCCAAUAUUGCAGGCUCCAAAG", "bound/input enrichment [ratio]": 2.33}
{"Sequence": "GUGCAAGGAGAUUAUCCCAACUAGUGAAUUUAUUAACAGUAAGUUGACAGCAAAAGCAAAUAGGCAACUUCAAGAUCCUUUAGUAAUCAUGACAGGAAACAUCCCAACGUGGCUCACUGA", "bound/input enrichment [ratio]": 1.24}
{"Sequence": "CGCGGAGGAAGAGCCCACUCGCCGCUGCCCAUGGAUGAUUGAGGAACCCUCGCCAGCCCUAGGGGGCAGGGCACAGUAUUUUCUUUUUCUGCCUCAGAGUCUCCAAAAGCAGAAGUGGCA", "bound/input enrichment [ratio]": 0.506}
{"Sequence": "GAUUUAGAUAUUCUUUUUAUUCUUUUUCUUUUCCCUCAAUCCUUUUUUAUUUUUAAAAAAUAGUUCUUUUGUAAUGUGGUGUUCAAAAUGGAAAUGAAAACUGGCAUCCCAUCUCUUUAA", "bound/input enrichment [ratio]": 4.78}
{"Sequence": "UUUGAGGGAGAGAUUUCUGUGCUUUCUCAUUUAAUUUACUCUUUUUAAGAUAUUCCAACCUAGAGUUUUUGAUGGAACUGAUAUAUUGACAGUUCUCACCUAAGUCCUUUUAUAAAGAAU", "bound/input enrichment [ratio]": 0.835}
{"Sequence": "AUUAAAUGUGUAUCAAAUGCUGGAUAUCCCAUUAAACCAUCAUUUAGGAUAGAUGUUUAUUUGUUACAAUUAAGCUACAAAUAGGUUUCCUUAAACCAGAAAUGCACUGCCCUUGUCUUA", "bound/input enrichment [ratio]": 0.345}
{"data": "Block 3", "target": "FOSL1, bZIP domain (human)", "method": "DHFR protein complementation", "sample": "yeast", "setting": "single substitutions, most at no-binding floor", "reference": "wild-type JUN-FOS pair", "reading": "higher = stronger binding", "starting sequence": "JUN, bZIP domain (human); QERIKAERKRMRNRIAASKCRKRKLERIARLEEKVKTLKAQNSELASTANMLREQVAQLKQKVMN; partner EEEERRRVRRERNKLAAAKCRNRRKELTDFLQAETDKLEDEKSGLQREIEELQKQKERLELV"}
{"Variant": "E54R", "binding fitness [natural log]": -0.561}
{"Variant": "E32R", "binding fitness [natural log]": -0.266}
{"Variant": "L38V", "binding fitness [natural log]": -1.37}
{"Variant": "T48C", "binding fitness [natural log]": -0.571}
{"Variant": "A29I", "binding fitness [natural log]": -0.56}
{"Variant": "L31P", "binding fitness [natural log]": -1.36}
{"Variant": "E33C", "binding fitness [natural log]": -0.716}
{"Variant": "Q41R", "binding fitness [natural log]": -0.699}
{"Variant": "M51K", "binding fitness [natural log]": -0.364}
{"Variant": "A57G", "binding fitness [natural log]": -0.592}
{"Variant": "L52H", "binding fitness [natural log]": -1.49}
{"Variant": "Q58R", "binding fitness [natural log]": -0.592}
{"Variant": "T48L", "binding fitness [natural log]": -0.398}
{"Variant": "T48A", "binding fitness [natural log]": -0.451}
{"Variant": "M51P", "binding fitness [natural log]": -1.43}
{"Variant": "K39R", "binding fitness [natural log]": -0.241}
{"Variant": "A40W", "binding fitness [natural log]": -0.802}
{"Variant": "L38I", "binding fitness [natural log]": -1.08}
{"Variant": "A49K", "binding fitness [natural log]": -0.628}
{"Variant": "K34Q", "binding fitness [natural log]": -0.56}
{"Variant": "E54W", "binding fitness [natural log]": -0.891}
{"Variant": "S43G", "binding fitness [natural log]": -0.46}
{"Variant": "V35S", "binding fitness [natural log]": -1.19}
{"Variant": "R30I", "binding fitness [natural log]": -0.367}
{"Variant": "K36E", "binding fitness [natural log]": -0.436}
{"data": "Block 4", "target": "CCNE1, cyclin fold, Cln2 fusion (human)", "method": "yeast growth competition, sequencing", "sample": "yeast", "setting": "weak parent motif", "reference": "not given", "reading": "higher = stronger binding", "starting sequence": "SLBP docking peptide (human); ARYKRKLLINDFG"}
{"Variant": "R5L", "normalised enrichment score": 1.22}
{"Variant": "R5W", "normalised enrichment score": -0.599}
{"Variant": "R2C", "normalised enrichment score": 0.795}
{"Variant": "D11G", "normalised enrichment score": 0.325}
{"Variant": "L7V", "normalised enrichment score": 0.235}
{"Variant": "K4L", "normalised enrichment score": 1.46}
{"Variant": "A1V", "normalised enrichment score": 1.06}
{"Variant": "A1R", "normalised enrichment score": 0.44}
{"Variant": "L8Y", "normalised enrichment score": 0.504}
{"Variant": "R5Q", "normalised enrichment score": -0.282}
{"Variant": "L8N", "normalised enrichment score": 0.955}
{"Variant": "R5M", "normalised enrichment score": 0.568}
{"Variant": "K6V", "normalised enrichment score": 1.29}
{"Variant": "R5F", "normalised enrichment score": 0.353}
{"Variant": "F12K", "normalised enrichment score": -0.0485}
{"Variant": "A1M", "normalised enrichment score": 1.09}
{"Variant": "F12S", "normalised enrichment score": 0.0937}
{"Variant": "R5K", "normalised enrichment score": 0.479}
{"Variant": "R5I", "normalised enrichment score": 0.503}
{"Variant": "Y3W", "normalised enrichment score": 0.659}
{"Variant": "G13Y", "normalised enrichment score": 1.09}
{"Variant": "Y3Q", "normalised enrichment score": 0.39}
{"Variant": "L7W", "normalised enrichment score": 0.00278}
{"Variant": "A1S", "normalised enrichment score": 0.911}
{"data": "Block 5", "target": "ABI1, truncated, D143A, DHFR fusion (Arabidopsis thaliana)", "method": "DHFR PCA, deep sequencing", "sample": "yeast", "setting": "methotrexate growth selection, single substitutions", "added": "(+)-ABA 0.0091 µM", "reference": "wild-type fitted maximum", "reading": "higher = stronger binding", "starting sequence": "PYL1, truncated, DHFR fusion (Arabidopsis thaliana); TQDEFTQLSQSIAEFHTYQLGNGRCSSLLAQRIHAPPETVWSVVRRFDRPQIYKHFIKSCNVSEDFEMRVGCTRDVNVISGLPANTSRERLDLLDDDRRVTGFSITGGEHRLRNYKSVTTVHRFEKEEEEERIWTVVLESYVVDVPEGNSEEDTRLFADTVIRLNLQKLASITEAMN; partner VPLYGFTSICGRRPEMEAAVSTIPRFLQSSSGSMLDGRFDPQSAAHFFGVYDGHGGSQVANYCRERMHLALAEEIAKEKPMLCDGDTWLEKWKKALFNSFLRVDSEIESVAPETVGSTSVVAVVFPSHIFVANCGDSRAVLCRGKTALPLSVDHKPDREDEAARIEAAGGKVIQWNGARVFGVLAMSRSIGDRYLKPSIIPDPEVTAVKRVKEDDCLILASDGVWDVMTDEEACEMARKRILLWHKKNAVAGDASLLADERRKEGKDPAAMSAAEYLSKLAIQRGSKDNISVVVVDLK"}
{"Variant": "F56Q", "relative binding score [%]": 1.02}
{"Variant": "D95M", "relative binding score [%]": -5.05}
{"Variant": "K126Q", "relative binding score [%]": 42.4}
{"Variant": "D95V", "relative binding score [%]": -7.93}
{"Variant": "S9Q", "relative binding score [%]": 50.1}
{"Variant": "V137I", "relative binding score [%]": -4.09}
{"Variant": "G81I", "relative binding score [%]": -0.387}
{"Variant": "E139I", "relative binding score [%]": -6.35}
{"Variant": "S117I", "relative binding score [%]": -9.3}
{"Variant": "R45N", "relative binding score [%]": -1.04}
{"Variant": "S59G", "relative binding score [%]": 5.89}
{"Variant": "L156H", "relative binding score [%]": 3.93}
{"Variant": "D96E", "relative binding score [%]": 47.1}
{"Variant": "V70D", "relative binding score [%]": 7.25}
{"data": "Other studies, line by line"}
{"Molecule": "PhoQ, residues 284 288 289 292 302 303 AGCYAI", "target": "PhoP, residues 12 14 15 18 19 LHSVW (Escherichia coli, UniProt P23836)", "assay": "Sort-seq, item: YFP reporter", "test system": "E. coli", "setting": "PhoQ-PhoP variant library, added: 10 µM Mg2+", "scale": "reference: high Mg2+ state, higher = stronger signaling", "measurement": "fold induction", "value": 14.5}
{"note": "For quick reference, copied from above (block 1):"}
{"Variant": "Y8N", "fold enrichment": "0.387 fold"}
{"Variant": "A13E", "fold enrichment": "18.5 fold"}
{"Variant": "I10T", "fold enrichment": "0.467 fold"}
{"Variant": "F12I", "fold enrichment": "10.7 fold"}
{"Variant": "E3P", "fold enrichment": "24.3 fold"}
{"Variant": "F12D", "fold enrichment": "0.55 fold"}
{"Variant": "P6R", "fold enrichment": "1.77 fold"}
{"Variant": "Q9M", "fold enrichment": "14 fold"}
